# Published values collected from several papers.
# Protocols differ between the studies behind these lines. Numbers after ± are the reported error.
Substance,assay,test system,setting,how to read,inhibition
CC(C)Cc1ccc(C(C)C(=O)O)cc1 (centres unmarked),analgesic activity,"mouse, acetic acid writhing","oral, 20 mg/kg, 30 min before acetic acid",relative to: vehicle,74.1%
AGEDPHGYFLPGQFA,RANTES expression,"peptide, peritoneal macrophages, C57BL/6 mouse","1 pM, 15 h, pretreated 1 h, optimal dose, together with: LPS 100 ng/ml + IFN-γ 20 ng/ml",,47%
CNC(=O)c1cc(Oc2ccc(NC(=O)Nc3ccc(Cl)c(C(F)(F)F)c3)cc2)ccn1,tumour volume,"nude mouse, subcutaneous MHCC97H","oral, 2 mg/kg every 2 days, 10 doses, 21 days, cells transfected",,65 ± 9.16%
C[C@]12CCCN1CC1=NNC(=O)c3cc(F)cc4[nH]c2c1c34,PARylation in tumour,"mouse, MDA-MB-436 xenograft, tumour","5.45 mg/kg, 0.5 h",,98%
PHGYFLPGQFAFS,RANTES expression,"peptide, peritoneal macrophages, C57BL/6 mouse","100 pM, 15 h, pretreated 1 h, optimal dose, together with: LPS 100 ng/ml + IFN-γ 20 ng/ml",,32%
CNC(=O)[C@@]12C[C@@H]1[C@@H](n1cnc3c(NC)nc(C#Cc4ccc(Cl)s4)nc31)[C@H](O)[C@@H]2O,"mechanical allodynia, paw withdrawal threshold","mouse, sciatic nerve CCI","oral, 3 µmol/kg, 3 h",,~80%
C[n+]1cccc2c(N)cccc21,refers to: 1-MNA,"mouse, epididymal white adipose tissue","subcutaneous, 25 mg/kg once daily for 5 days, 1 h post-dose",relative to: 1-MNA level at 8 h post-dose,~70%
O=C(NCc1ccc(CNS(=O)(=O)c2ccc(CN3CCOCC3)cc2)cc1)c1ccc(F)cc1,carrageenan paw oedema,mouse C57BL/6J female,"ip, 10 mg/kg daily, 74 h",relative to: vehicle,~20%
AQAGEDPHGYFLPGQFAFS,RANTES expression,"peptide, peritoneal macrophages, C57BL/6 mouse","100 pM, 15 h, pretreated 1 h, optimal dose, together with: LPS 100 ng/ml + IFN-γ 20 ng/ml",,41%
O=C(c1cc(Cc2n[nH]c(=O)c3ccccc23)ccc1F)N1CCN(C(=O)C2CC2)CC1,PARylation in tumour,"mouse, MDA-MB-436 xenograft, tumour","25 mg/kg, 12 h",,72%
O=C(NCc1ccc(CNS(=O)(=O)c2ccc(CN3CCCC3)cc2)cc1)c1ccc(F)cc1,carrageenan paw oedema,mouse C57BL/6J female,"ip, 10 mg/kg daily, 74 h",relative to: vehicle,~20%
